Published values collected from several papers.
Lines come from different studies, so protocols differ. “And” joins repeats or separate records; there may be more than shown. ± gives the spread as reported.

| SMILES | test | system | conditions | how to read | endpoint | value |
| --- | --- | --- | --- | --- | --- | --- |
| Clc1ccc(Cl)c(-c2cc(Cl)ccc2Cl)c1 | – | PDMS-water partitioning | PCB compilation | relative to: maximum over minimum K | literature range factor | 3 |
| C=C(CN(C(=O)c1c(C(F)F)nn(C)c1F)C1CC1)c1ccc(Cl)cc1Cl | static acute toxicity test | zebrafish (Brachydanio rerio) | 1.00 mg a.i./L, 72 h | – | mortality | 50% |
| CCOc1cc(Oc2ccc(C(F)(F)F)cc2Cl)ccc1[N+](=O)[O-] | – | rat male | 31.25 mg/kg, 8 days | – | final body weight | 146 ± 6.93 g |
| O=C(O)CCCOc1ccc(F)cc1-c1cc(-c2ccccc2C(F)(F)F)n(-c2ccccc2)n1 | item: α1-glb | Crl:CD(SD) rats, female, serum | iv, 25 µg/kg, 1 day | – | serum protein fraction | 19 ± 1.8% |
| CC(C)[C@H](C(=O)O[C@H](C#N)c1cccc(Oc2ccccc2)c1)c1ccc(Cl)cc1 | – | pooled human liver microsomes | – | – | CLint | 0.454 mL/min/mg protein |
| CN1CCN(c2ccc(Nc3nccc(-c4cccnc4)n3)cc2C(F)(F)F)CC1 | – | zebrafish embryos | 25 µM, 5 d | – | toxicity | 33 ± 11% |
| C[C@]1(CO)Cc2ncn(-c3ccc(C#N)c(Cl)c3)c2C(=O)O1 | – | healthy Japanese adults, plasma | 80 mg once daily, dosing interval 24 h | – | accumulation ratio of AUC | 1.1 |
| COc1cc2c(Oc3ccc4[nH]c(C)cc4c3F)ccnc2cc1OCC1(N)CC1 | – | paediatric refractory sarcoma patients | 8 mg | – | grade 3 bone pain | 0% |
| Clc1cc(Cl)c(-c2ccc(Cl)c(Cl)c2Cl)cc1Cl | – | fresh water | 20 °C, S30-2 sampler, 30 µm | – | log K(PDMS-water) | 6.43 ± 0.05 |
| N#C[C@H](O[C@@H]1O[C@H](CO)[C@@H](O)[C@H](O)[C@H]1O)c1ccccc1 | – | Sprague Dawley rat, plasma | oral, 10 g lyophilized powder/kg, high dose | – | Vz/F | 25.7 ± 6.97 L/kg |
| CC(C)c1nc(N(C)S(C)(=O)=O)nc(-c2ccc(F)cc2)c1/C=C/[C@@H](O)C[C@@H](O)CC(=O)O | – | healthy human subjects | oral, dose not given, study CL-0537 safety set | – | incidence of dry mouth | 7.1% |
| CCC[C@H]1CC[C@H](c2ccc(-c3ccc(F)cc3)cc2)CC1 | item: compound | human pregnant women, male fetuses, maternal serum | dose not given, paired maternal-cord samples, mean | – | concentration | 0.81 ng/mL |
| Clc1ccc(-c2ccccc2)cc1 | – | Sprague-Dawley rats, female, serum | inhalation, 23 µg/rat, 0 h after exposure | – | glucose | 271 ± 71 mg/dL |
| COc1cc2c(cc1OC)CN(CCc1ccc(NC(=O)c3cccc4c(=O)c5cccc(OC)c5[nH]c34)cc1)CC2 | – | CD-1 mouse, male, plasma | intraperitoneal, 30 mg/kg | – | Tmax | 6 h |
| N[C@@H]1c2ccccc2OC12CCN(c1cnc3c(N4CCCc5ncccc54)n[nH]c3n1)CC2 | – | advanced metastatic solid tumour patients | oral, 10 mg once daily | – | TEAE leading to withdrawal | 0% |
| COc1ccc(C[C@@H]2NC(=O)[C@H]([C@@H](C)O)NC(=O)[C@@H]3[C@@H]4CCN3C(=O)[C@@H]3Cc5cn(c6ccc(F)cc56)CCCCCCN(Cc5ccc(cc5)CCNC(=O)[C@]5(C)CCCN5C2=O)C(=O)CCC(=O)N[C@@H](C)C(=O)N[C@H](CNC(=O)CCCCC[N+](C)(C)C)C(=O)N[C@@H](Cc2cccc(c2)CNC(=O)CO4)C(=O)N3)cc1 | item: Dyspepsia | humans | concentration not given, Study-001 | – | participants with adverse event | 3.9% |
| CCCCCCCCCCCCCCCC(=O)N[C@@H](CCC(=O)NCCCC[C@H](NC(=O)[C@H](CC(=O)O)NC(=O)[C@H](CO)NC(=O)[C@@H](NC(=O)[C@H](Cc1ccccc1)NC(=O)[C@@H](NC(=O)CNC(=O)[C@H](CCC(N)=O)NC(=O)[C@H](CO)NC(=O)[C@@H](N)Cc1c[nH]cn1)[C@@H](C)O)[C@@H](C)O)C(=O)N[C@@H](CO)C(=O)N[C@@H](CCC(=O)O)C(=O)N[C@@H](Cc1ccc(O)cc1)C(=O)N[C@@H](CC(C)C)C(=O)N[C@@H](CC(=O)O)C(=O)N[C@@H](CO)C(=O)N[C@@H](CCC(=O)O)C(=O)N[C@@H](CCCNC(=N)N)C(=O)N[C@@H](C)C(=O)N[C@@H](CCCNC(=N)N)C(=O)N[C@@H](CC(=O)O)C(=O)N[C@@H](Cc1ccccc1)C(=O)N[C@H](C(=O)N[C@@H](C)C(=O)N[C@@H](Cc1c[nH]c2ccccc12)C(=O)N[C@@H](CC(C)C)C(=O)N[C@@H](CCC(=O)O)C(=O)N[C@@H](C)C(=O)NCC(=O)NCC(=O)O)C(C)C)C(=O)O | item: Vomiting | humans CrCl 20 to 30 mL/min | subcutaneous, 100 µg single dose | – | treatment-related adverse events | 50% |
| CN1CC[C@@H](c2c(O)cc(O)c3c(=O)cc(-c4ccc(C(F)(F)F)cc4Cl)oc23)[C@@H]1CO | item: Neutropenia | relapsed AML | oral, 150 mg, grade 3-4, intermittent dosing | – | patients with adverse event | 25% |
| N=C(N)NCCNC(=O)C1(Nc2ccccc2)CCN(Cc2ccccc2)CC1 | – | Sprague-Dawley rat, male, urine | intravenous, 2.5 mg/kg, time not given | – | unchanged urinary recovery | 17.3 ± 8.3% |

| SMILES | test | system | conditions | how to read | endpoint | value |
| --- | --- | --- | --- | --- | --- | --- |
| CC(C)C[C@@H]1NC(=O)CNC(=O)[C@H](CC(N)=O)NC(=O)[C@H](CCCNC(=N)N)NC(=O)[C@H]([C@@H](C)O)NC(=O)[C@@H]2CSSC[C@@H]3NC(=O)[C@H]([C@@H](C)O)NC(=O)CNC(=O)CNC(=O)[C@H](C(C)C)NC(=O)[C@@H]4CSSC[C@H](NC(=O)[C@H]([C@@H](C)O)NC(=O)[C@H](CSSC[C@H](NC(=O)[C@H](C(C)C)NC(=O)[C@@H]5CCCN5C1=O)C(=O)NCC(=O)N[C@@H](CCC(=O)O)C(=O)N[C@@H]([C@@H](C)O)C(=O)N4)NC(=O)CNC(=O)[C@@H]1CCCN1C(=O)[C@H]([C@@H](C)O)NC(=O)[C@H](CC(N)=O)NC3=O)C(=O)N[C@@H](CCCCN)C(=O)N[C@@H](Cc1c[nH]c3ccccc13)C(=O)N1CCC[C@H]1C(=O)N[C@@H](C(C)C)C(=O)N2 | HPLC | ammonium bicarbonate | 180 µM, 7 days, pH 9.0, 25 °C, deamidation stability | – | remaining peptide | 89.5 ± 0.2% |
| O=C1Nc2cc3[nH]nc(-c4ccncc4)c3cc2CN1Cc1ccccc1 | CTCAE v4.03 | human, relapsed or refractory advanced solid tumours | intravenous, 4.8 mg/kg | – | patients with subretinal fluid | 33% |
| NC(=O)[C@H]1CCN(c2ncnc(N)c2F)C[C@@H]1N1CCC[C@@H](Nc2cc(Cl)cc(C(F)(F)F)c2)C1=O | – | B-cell malignancy patients | oral, 82 mg twice daily, dose | – | any grade ≥3 adverse event | 29% |
| CCC[C@@](N)(CO)CCc1ccc(OCCCCCC(C)C)cc1 | – | dog, male hounds, plasma | oral capsule, 15 mg/kg, median | – | Tmax | 8 h |
| CC(=O)c1c(C)c2cnc(Nc3ccc(C4CCN(CCS(C)(=O)=O)CC4)cn3)nc2n(C2CCCC2)c1=O | – | human, plasma | oral, 25 mg, day 1 single dose | – | elimination rate constant | 1.39e-05 s⁻¹ |
| Clc1ccc(-c2cc(Cl)c(Cl)cc2Cl)cc1Cl | – | fresh water | 20 °C, S30-2 sampler, 30 µm | – | log K(PDMS-water) | 6.07 ± 0.04 |
| CC(C)(O)c1cc(Nc2cc(Oc3cn(C4CC4)nc3C3CCOCC3)ccn2)ccn1 | Pyrexia | patients with advanced cancer, Japanese cohort | oral, dose not given, grade ≥3 | – | treatment-related adverse events | 0% |
| CCN(CCO)CCCC(C)Nc1ccnc2cc(Cl)ccc12 (centres unmarked) | – | newly diagnosed glioblastoma patients | oral, 400 mg/dose, grade 2, together with: radiotherapy and temozolomide | – | white cell decrease patients | 14% |
| CC(C)C[C@@H]1NC(=O)[C@H](CC(N)=O)NC(=O)[C@H](CCCNC(=N)N)NC(=O)[C@H]([C@@H](C)O)NC(=O)[C@@H]2CSSC[C@@H]3NC(=O)[C@H]([C@@H](C)O)NC(=O)CNC(=O)CNC(=O)[C@H](C(C)C)NC(=O)[C@@H]4CSSC[C@H](NC(=O)[C@H](CCCCN)NC(=O)[C@H](CSSC[C@H](NC(=O)[C@H](C(C)C)NC(=O)[C@@H]5CCCN5C(=O)[C@H](CC(C)C)NC1=O)C(=O)NCC(=O)N[C@@H](CCC(=O)O)C(=O)N[C@@H]([C@@H](C)O)C(=O)N4)NC(=O)CNC(=O)[C@@H]1CCCN1C(=O)[C@H]([C@@H](C)O)NC(=O)[C@H](CC(N)=O)NC3=O)C(=O)N[C@@H](CO)C(=O)N[C@@H](Cc1c[nH]c3ccccc13)C(=O)N1CCC[C@H]1C(=O)N[C@@H](C(C)C)C(=O)N2 | HPLC | ammonium bicarbonate | 180 µM, 14 days, pH 9.0, 25 °C, deamidation stability | – | remaining peptide | 97.2 ± 0.9% |
| COc1cccc(Oc2ccccc2NC(=O)CNC(=O)c2cccc3ccccc23)c1 | – | esterase-deficient SCID mice, male, blood | oral, 100 mg/kg/day, 14 days, toxicity study | – | hemoglobin | 15.9 g/dL and 15.3 g/dL and 14.4 g/dL |
| c1ccc2c(c1)-c1ccc3ccc4cccc5cc-2c1c3c45 | – | polyethylene-water partitioning | PAH compilation | – | literature range of log K | 5.8 to 7.62 log units |
| COc1cccc2c1CCCC2CCCN1CCN(C2CCCCC2)CC1 (centres unmarked) | – | CD-1 mouse, male, lung | intraperitoneal, 1 mg/kg | – | Tmax | 0.5 h |
| O=S(=O)(Nc1ccccc1)c1ccc(NC(=S)Nc2ccccc2)cc1 | – | male mouse, blood | oral, 5 mg/kg daily, 14 days | – | haematocrit | 45% |
| N.N.O=C([O-])C1(C(=O)[O-])CCC1.[Pt+2] | ICP-MS platinum, item: platinum | human patients, plasma | dose not given, carboplatin target AUC 4, cycle 1 day 1 | – | AUC(0-48 h) | 124 µg·h/mL |
| CC[C@H](C)[C@H](NC(=O)[C@H](Cc1ccccc1)NC(=O)[C@H](CCC(=O)O)NC(=O)[C@H](CCCNC(=N)N)NC(=O)[C@H](C)NC(=O)[C@H](C)NC(=O)[C@H](CCC(N)=O)NC(=O)[C@H](CCC(=O)O)NC(=O)[C@H](CCC(=O)O)NC(=O)[C@H](CC(C)C)NC(=O)[C@H](Cc1ccc(O)cc1)NC(=O)[C@H](CO)NC(=O)[C@H](CO)NC(=O)[C@@H](NC(=O)[C@H](CC(=O)O)NC(=O)[C@H](CO)NC(=O)[C@@H](NC(=O)[C@H](Cc1ccccc1)NC(=O)[C@@H](NC(=O)CNC(=O)[C@H](CCC(=O)O)NC(=O)[C@H](C)NC(=O)CCc1cnc[nH]1)[C@@H](C)O)[C@@H](C)O)C(C)C)C(=O)N[C@@H](C)C(=O)N[C@@H](Cc1c[nH]c2ccccc12)C(=O)N[C@@H](CC(C)C)C(=O)N[C@H](C(=O)N[C@@H](CCCNC(=N)N)C(=O)NCC(=O)N[C@@H](CCCNC(=N)N)C(=O)N[C@@H](CCCCNC(=O)COCCOCCNC(=O)COCCOCCNC(=O)CC[C@H](NC(=O)CCCCCCCCCCCCCCCCC(=O)O)C(=O)O)C(=O)NCC(=O)NCC(=O)N[C@@H](CO)C(=O)N[C@@H](CCCCNC(=O)[C@H](CCCCNC(=O)[C@H](CCCCNc1c(NCCCCCN(O)C(=O)CCC(=O)NCCCCCN(O)C(=O)CCC(=O)NCCCCCN(O)C(C)=O)c(=O)c1=O)Nc1c(NCCCCCN(O)C(=O)CCC(=O)NCCCCCN(O)C(=O)CCC(=O)NCCCCCN(O)C(C)=O)c(=O)c1=O)NC(=O)[C@H](CCCCNc1c(NCCCCCN(O)C(=O)CCC(=O)NCCCCCN(O)C(=O)CCC(=O)NCCCCCN(O)C(C)=O)c(=O)c1=O)Nc1c(NCCCCCN(O)C(=O)CCC(=O)NCCCCCN(O)C(=O)CCC(=O)NCCCCCN(O)C(C)=O)c(=O)c1=O)C(=O)O)C(C)C [zirconium-89 labelled] | ex vivo gamma counting | male Sprague-Dawley rats, intestine | intravenous, 1 nmol, 24 h | – | tissue uptake | 0.412 %ID/g |
| COc1ncccc1-c1cnn2ccc(N3CCN(C(=O)OC(C)C)CC3)nc12 | – | mouse, formalin test, plasma | oral, 30 mg/kg, 60 min | – | drug concentration | 13 µM |
| CO[C@H]1C[C@@H]2CC[C@@H](C)[C@@](O)(O2)C(=O)C(=O)N2CCCC[C@H]2C(=O)O[C@H]([C@H](C)C[C@@H]2CC[C@@H](OC(=O)NCCOCCOCCOCCOCCOCCOCCOCCOCCC(=O)N3CCc4cc(Cn5nc(-c6ccc7oc(N)nc7c6)c6c(N)ncnc65)ccc4C3)[C@H](OC)C2)C[C@@H](O)[C@H](C)/C=C(\C)[C@@H](O)[C@@H](OC)C(=O)[C@H](C)C[C@H](C)/C=C/C=C/C=C/1C | phase 1 dose escalation | advanced solid tumour patients | intravenous, 16 mg weekly, any grade | – | any TRAE incidence | 75% |
| C[C@@H](NC(=O)N1C(=O)[C@H](Cc2ccnc(N)c2)[C@H]1C(=O)O)C1CCCCC1 | – | healthy Chinese adult volunteers | continuous intravenous infusion, dose not given, 5.0 days, CTCAE 5.0, all doses | – | decreased neutrophil | 0% |
| CCS(=O)(=O)Nc1ccc(Oc2ccc(F)cc2F)c(-c2cn(C)c(=O)c3[nH]ccc23)c1 | serious myocardial infarction | human, relapsed/refractory AML | oral, dose not given | – | treatment-emergent adverse events | 5% |

A few entries again:
| SMILES | test | system | conditions | how to read | endpoint | value |
| --- | --- | --- | --- | --- | --- | --- |
| COc1cc2c(cc1OC)CN(CCc1ccc(NC(=O)c3cccc4c(=O)c5cccc(OC)c5[nH]c34)cc1)CC2 | – | CD-1 mouse, male, plasma | intraperitoneal, 30 mg/kg | – | Tmax | 6 h |
| C=C(CN(C(=O)c1c(C(F)F)nn(C)c1F)C1CC1)c1ccc(Cl)cc1Cl | static acute toxicity test | zebrafish (Brachydanio rerio) | 1.00 mg a.i./L, 72 h | – | mortality | 50% |
